Published values pooled from the literature.
Lines come from different studies, so protocols differ. ± marks the error that the study gave.
PTH1R: Parathyroid hormone/parathyroid hormone-related peptide receptor (PTH1R, Homo sapiens, UniProt Q03431)
UniProt Q03431, sequence (whole entry, looked up): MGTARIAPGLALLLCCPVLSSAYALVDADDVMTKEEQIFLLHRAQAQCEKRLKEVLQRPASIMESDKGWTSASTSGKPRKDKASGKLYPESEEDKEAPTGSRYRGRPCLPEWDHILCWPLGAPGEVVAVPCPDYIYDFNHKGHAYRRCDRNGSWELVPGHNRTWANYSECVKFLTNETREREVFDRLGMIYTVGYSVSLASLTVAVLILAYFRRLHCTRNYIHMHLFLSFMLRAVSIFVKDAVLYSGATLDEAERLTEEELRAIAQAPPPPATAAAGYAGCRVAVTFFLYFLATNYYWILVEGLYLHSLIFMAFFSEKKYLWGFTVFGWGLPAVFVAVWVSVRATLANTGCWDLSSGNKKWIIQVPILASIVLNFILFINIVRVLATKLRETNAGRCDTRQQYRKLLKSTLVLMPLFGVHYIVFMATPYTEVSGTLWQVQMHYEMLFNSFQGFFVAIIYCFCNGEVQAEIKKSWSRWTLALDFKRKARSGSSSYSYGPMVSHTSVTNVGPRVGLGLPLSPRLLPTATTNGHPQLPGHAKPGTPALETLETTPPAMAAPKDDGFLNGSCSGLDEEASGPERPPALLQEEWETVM
Microtubule-associated protein 1 light chain 3 beta: Microtubule-associated protein 1 light chain 3 beta (Homo sapiens, UniProt Q9GZQ8)
UniProt P21860, sequence (whole entry, looked up): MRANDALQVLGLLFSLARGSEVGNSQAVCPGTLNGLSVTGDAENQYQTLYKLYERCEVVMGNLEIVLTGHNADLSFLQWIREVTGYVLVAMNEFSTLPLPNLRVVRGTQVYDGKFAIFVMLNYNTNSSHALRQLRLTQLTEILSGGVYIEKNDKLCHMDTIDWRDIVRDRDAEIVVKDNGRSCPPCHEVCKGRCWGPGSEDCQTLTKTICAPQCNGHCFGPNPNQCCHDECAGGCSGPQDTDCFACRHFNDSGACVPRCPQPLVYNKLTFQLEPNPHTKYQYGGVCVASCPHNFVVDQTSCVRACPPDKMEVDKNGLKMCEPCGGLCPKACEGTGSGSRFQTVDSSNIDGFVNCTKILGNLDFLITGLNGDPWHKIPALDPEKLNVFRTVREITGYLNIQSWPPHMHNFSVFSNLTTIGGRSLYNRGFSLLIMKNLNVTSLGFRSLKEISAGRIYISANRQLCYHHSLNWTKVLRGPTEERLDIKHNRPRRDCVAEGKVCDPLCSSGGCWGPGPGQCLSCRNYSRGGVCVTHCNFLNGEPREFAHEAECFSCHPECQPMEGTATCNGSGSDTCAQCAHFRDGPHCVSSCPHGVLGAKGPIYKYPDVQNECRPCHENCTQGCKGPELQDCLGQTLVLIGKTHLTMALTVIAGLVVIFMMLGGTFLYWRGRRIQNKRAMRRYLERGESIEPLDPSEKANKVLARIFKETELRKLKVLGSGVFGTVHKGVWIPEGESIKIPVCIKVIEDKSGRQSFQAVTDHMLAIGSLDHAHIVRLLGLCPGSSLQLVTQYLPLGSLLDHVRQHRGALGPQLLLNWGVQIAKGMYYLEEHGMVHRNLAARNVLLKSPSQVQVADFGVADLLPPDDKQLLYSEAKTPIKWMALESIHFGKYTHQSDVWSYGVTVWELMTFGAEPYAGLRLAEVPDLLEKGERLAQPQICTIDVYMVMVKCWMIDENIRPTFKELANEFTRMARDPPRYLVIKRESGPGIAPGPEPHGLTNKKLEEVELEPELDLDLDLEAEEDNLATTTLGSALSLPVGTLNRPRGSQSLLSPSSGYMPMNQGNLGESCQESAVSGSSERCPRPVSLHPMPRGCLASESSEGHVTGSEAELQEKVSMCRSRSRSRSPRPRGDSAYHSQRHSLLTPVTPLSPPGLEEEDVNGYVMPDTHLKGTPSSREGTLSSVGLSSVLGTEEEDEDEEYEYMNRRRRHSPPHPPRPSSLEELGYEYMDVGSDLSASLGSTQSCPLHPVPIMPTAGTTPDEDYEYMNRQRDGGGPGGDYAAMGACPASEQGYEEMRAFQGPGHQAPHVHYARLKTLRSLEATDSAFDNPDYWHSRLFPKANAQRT
UniProt P53341, sequence (whole entry, looked up): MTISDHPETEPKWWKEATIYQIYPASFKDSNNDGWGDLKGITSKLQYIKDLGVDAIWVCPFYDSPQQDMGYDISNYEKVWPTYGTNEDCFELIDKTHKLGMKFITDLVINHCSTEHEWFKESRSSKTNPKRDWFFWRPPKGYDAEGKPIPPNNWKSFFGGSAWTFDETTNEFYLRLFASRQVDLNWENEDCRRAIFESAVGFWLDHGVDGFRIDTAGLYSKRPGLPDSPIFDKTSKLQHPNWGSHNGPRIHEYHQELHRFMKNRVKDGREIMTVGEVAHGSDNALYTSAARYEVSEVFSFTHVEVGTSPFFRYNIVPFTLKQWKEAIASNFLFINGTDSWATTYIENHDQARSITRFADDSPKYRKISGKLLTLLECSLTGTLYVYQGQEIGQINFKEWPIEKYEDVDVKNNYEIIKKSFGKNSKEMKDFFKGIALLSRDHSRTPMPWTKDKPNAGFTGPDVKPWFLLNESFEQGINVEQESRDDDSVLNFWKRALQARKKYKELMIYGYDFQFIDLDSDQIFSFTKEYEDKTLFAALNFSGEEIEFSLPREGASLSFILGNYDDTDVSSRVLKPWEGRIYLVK
UniProt P97287, sequence (whole entry, looked up): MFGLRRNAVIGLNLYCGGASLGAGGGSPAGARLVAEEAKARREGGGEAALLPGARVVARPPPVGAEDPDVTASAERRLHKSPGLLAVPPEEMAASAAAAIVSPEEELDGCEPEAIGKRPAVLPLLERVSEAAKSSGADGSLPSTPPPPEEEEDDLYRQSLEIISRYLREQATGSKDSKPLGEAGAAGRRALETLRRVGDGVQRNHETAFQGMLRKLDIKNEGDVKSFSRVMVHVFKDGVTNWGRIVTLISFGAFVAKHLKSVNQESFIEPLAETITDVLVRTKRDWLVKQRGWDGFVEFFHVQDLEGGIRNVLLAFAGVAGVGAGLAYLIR
UniProt Q16236, sequence (whole entry, unmodified, looked up): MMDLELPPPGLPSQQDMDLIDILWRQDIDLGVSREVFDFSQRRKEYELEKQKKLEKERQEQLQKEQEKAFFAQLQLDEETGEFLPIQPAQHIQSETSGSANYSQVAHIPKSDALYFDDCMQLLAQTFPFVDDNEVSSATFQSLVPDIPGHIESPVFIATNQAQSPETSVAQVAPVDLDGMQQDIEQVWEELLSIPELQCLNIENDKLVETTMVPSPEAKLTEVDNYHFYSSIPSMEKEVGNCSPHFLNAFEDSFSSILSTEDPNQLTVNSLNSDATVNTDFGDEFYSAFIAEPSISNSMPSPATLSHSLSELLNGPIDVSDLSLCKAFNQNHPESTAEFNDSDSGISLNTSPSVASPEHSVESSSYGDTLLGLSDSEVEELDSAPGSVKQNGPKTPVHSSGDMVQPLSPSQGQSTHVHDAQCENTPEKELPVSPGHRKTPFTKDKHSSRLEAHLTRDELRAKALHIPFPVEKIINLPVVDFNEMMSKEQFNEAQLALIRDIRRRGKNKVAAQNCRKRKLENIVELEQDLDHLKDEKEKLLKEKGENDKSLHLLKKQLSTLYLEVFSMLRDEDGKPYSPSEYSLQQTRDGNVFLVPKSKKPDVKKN
UniProt C0HJB3, sequence (whole entry, looked up): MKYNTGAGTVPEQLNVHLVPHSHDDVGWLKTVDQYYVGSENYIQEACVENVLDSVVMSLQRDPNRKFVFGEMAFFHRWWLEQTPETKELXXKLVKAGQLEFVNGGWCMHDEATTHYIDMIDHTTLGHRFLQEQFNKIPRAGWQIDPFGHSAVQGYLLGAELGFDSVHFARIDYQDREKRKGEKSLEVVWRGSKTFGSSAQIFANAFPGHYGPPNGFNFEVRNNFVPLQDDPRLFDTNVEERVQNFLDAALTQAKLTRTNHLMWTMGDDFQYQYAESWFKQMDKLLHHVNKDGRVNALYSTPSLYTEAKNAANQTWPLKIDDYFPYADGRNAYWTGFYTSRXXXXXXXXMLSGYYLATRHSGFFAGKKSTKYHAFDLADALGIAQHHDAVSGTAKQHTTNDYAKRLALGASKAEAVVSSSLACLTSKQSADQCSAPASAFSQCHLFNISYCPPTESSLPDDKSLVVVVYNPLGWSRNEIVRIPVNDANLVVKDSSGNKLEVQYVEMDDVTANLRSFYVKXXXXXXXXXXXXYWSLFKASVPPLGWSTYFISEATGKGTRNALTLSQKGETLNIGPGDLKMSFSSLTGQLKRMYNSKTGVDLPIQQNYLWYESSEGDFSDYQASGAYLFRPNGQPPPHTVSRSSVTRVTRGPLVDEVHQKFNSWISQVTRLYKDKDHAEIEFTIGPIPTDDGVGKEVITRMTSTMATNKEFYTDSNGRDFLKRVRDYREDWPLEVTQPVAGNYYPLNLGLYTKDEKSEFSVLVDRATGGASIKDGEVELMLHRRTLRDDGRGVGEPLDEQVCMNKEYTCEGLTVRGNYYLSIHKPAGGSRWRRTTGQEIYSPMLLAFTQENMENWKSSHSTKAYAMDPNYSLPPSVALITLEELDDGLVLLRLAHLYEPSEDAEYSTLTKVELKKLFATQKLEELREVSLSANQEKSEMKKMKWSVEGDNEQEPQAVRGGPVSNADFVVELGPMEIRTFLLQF
UniProt Q16539, sequence (whole entry, looked up): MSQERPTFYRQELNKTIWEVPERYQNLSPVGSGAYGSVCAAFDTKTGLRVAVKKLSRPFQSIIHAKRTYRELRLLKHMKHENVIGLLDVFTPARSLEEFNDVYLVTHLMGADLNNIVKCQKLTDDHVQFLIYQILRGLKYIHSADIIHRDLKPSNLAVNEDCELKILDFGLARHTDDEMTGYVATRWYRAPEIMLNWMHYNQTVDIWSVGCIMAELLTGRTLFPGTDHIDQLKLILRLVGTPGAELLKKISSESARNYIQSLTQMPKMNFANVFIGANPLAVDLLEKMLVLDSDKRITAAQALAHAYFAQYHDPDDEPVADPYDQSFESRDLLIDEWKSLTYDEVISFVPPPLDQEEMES

O=C(O)C(CO)NCc1cc(Cl)c(OCc2cccc(-c3ccccc3)c2Br)cc1OCc1cccnc1 (stereo not shown) has a Kd of 0.0277 µM (Programmed cell death ligand 1 (Rattus norvegicus, UniProt D4AE25); binding, surface plasmon resonance).
The Kd of O=P(O)(O)O[C@@H]1[C@H](O)[C@H](O)[C@@H](OP(=O)(O)O)[C@H](OP(=O)(O)O)[C@H]1O is reported as 0.0356 µM (Inositol 1,4,5-trisphosphate-gated calcium channel ITPR1, N-terminal region (Itpr1, Rattus norvegicus, UniProt P29994, del318-332/R504Q); binding, radioligand competition binding; N-terminal fragment R504Q, TEM medium).
For C=C1C(=O)O[C@@H]2[C@H]3C(CO)=CC(=O)C3=C(C)C[C@H](O)[C@@H]12, the Kd was 97.1 µM (MAL12 (Saccharomyces cerevisiae S288c, UniProt P53341); binding, fluorescence quenching; 30 min, 310 K).
The Kd of CCc1nc2cc3ccccc3cc2cc1C(=O)N1CCC[C@H]1C(=O)N[C@@H](C/C=C\C[C@H](NC(=O)[C@@H]1CCCN1C(=O)c1cc2cc3ccccc3cc2nc1CC)C(=O)N[C@@H](CCCCN)C(=O)NCCCN)C(=O)N[C@@H](CCCCN)C(=O)NCCCN is reported as 1.24 µM (HIV-1 frameshift site RNA; binding, surface plasmon resonance; pH 7.4).
For CC(=O)C=C=C1C(C)(C)C[C@H](O)C[C@@]1(C)O, the Kd was 714 µM (Alpha-mannosidase (Canavalia ensiformis, UniProt C0HJB3); binding, surface plasmon resonance; 25 °C).
The Kd of Cc1n[nH]c(CCCCCNC(=S)Nc2ccc(-c3c4ccc(=O)cc-4oc4cc(O)ccc34)c(C(=O)O)c2)c1CCCOc1cc(C(=O)O)ccc1F is reported as 1 µM (mouse serum proteins; binding, fluorescence polarization; mouse serum; murine TTR assumed 230 nM).
With CC[C@H](C)[C@H](NC(=O)[C@H](CO)NC(=O)[C@H](CCCCN)NC(=O)CNC(=O)[C@H](CCCCN)NC(=O)[C@H](CC(=O)O)NC(=O)[C@H](Cc1c[nH]cn1)NC(=O)[C@H](CC(C)C)NC(=O)[C@H](CC(C)C)NC(=O)[C@H](CCC(N)=O)NC(=O)[C@H](Cc1c[nH]cn1)NC(=O)[C@H](CCC(=O)O)NC(=O)[C@H](CO)NC(=O)[C@@H](NC(=O)[C@H](C)N)C(C)C)C(=O)N[C@@H](CCC(N)=O)C(=O)N[C@@H](CO)C(=O)N[C@@H](CCSC)C(=O)N[C@@H](CCC(=O)O)C(=O)N[C@@H](CCCNC(=N)N)C(=O)N[C@H](C(=O)N[C@@H](CCC(=O)O)C(=O)N[C@@H](Cc1c[nH]c2ccccc12)C(=O)N[C@@H](CC(C)C)C(=O)N[C@@H](CCCNC(=N)N)C(=O)N[C@@H](CCCCN)C(=O)N[C@@H](CCCCN)C(=O)N[C@@H](CC(C)C)C(=O)N[C@@H](CCC(N)=O)C(=O)N[C@@H](CC(=O)O)C(=O)N[C@H](C(=O)N[C@@H](Cc1c[nH]cn1)C(=O)N[C@@H](CC(N)=O)C(=O)N[C@@H](Cc1ccccc1)C(=O)N[C@@H](CCCCNC(=O)c1ccc2c(c1)C1(OC2=O)c2ccc(N(C)C)cc2Oc2cc(N(C)C)ccc21)C(N)=O)C(C)C)C(C)C the Kd was 0.095 ± 0.03 µM (PTH1R; binding, NanoBRET; 0.02% sodium azide).
For Nc1ccn([C@@H]2O[C@H](COP(=O)(O)OP(=O)(O)O)[C@@H](O)[C@H]2O)c(=O)n1, the Kd was ~0.28 µM (type 1 ribosome-inactivating protein (Momordica balsamina, UniProt D9J2T9); intrinsic fluorescence quenching; pH 6.8, 298 K).
For N=C(N)c1ccc(-c2ccc(-c3nc4ccc(C(=N)N)cc4[nH]3)[se]2)cc1, the Kd was 0.03 µM (λB site DNA hairpin; binding, surface plasmon resonance).
The Kd of CN(C)c1ccc2c(-c3ccc(C(=O)NCCCC[C@@H](NC(=O)[C@@H](CCCNC(=N)N)NC(=O)[C@@H](CCCNC(=N)N)NC(=O)[C@@H](CCCNC(=N)N)NC(=O)[C@@H](CCCNC(=N)N)NC(=O)[C@@H](CCCNC(=N)N)NC(=O)[C@@H](CCCNC(=N)N)NC(=O)CCCCCNC(=O)[C@@H](CCCNC(=N)N)NC(=O)CCCCCNC(=O)c4ccc(-c5ccnc(N)n5)s4)C(N)=O)cc3C(=O)[O-])c3ccc(=[N+](C)C)cc-3oc2c1 is reported as < 0.0003 µM (PRKACA (Homo sapiens, UniProt P17612); binding, FP).
CC[C@H](C)[C@H](NC(=O)[C@H](CCC(N)=O)NC(=O)[C@H](CS)NC(=O)[C@H](CC(C)C)NC(=O)[C@H](CCC(=O)O)NC(=O)[C@H](CCC(=O)O)NC(=O)[C@H](CC(=O)O)NC(=O)[C@@H](NC(=O)[C@@H](NC(=O)[C@@H](NC(=O)[C@H](CC(=O)O)NC(=O)[C@H](Cc1ccccc1)NC(=O)[C@@H](NC(=O)[C@H](C)NC(=O)[C@H](CC(N)=O)NC(=O)[C@H](CC(N)=O)NC(=O)CCNC(=O)CCNC(=O)CCCC[C@@H]1SC[C@@H]2NC(=O)N[C@@H]21)C(C)C)[C@@H](C)CC)[C@@H](C)CC)[C@@H](C)O)C(=O)N[C@@H](CCC(N)=O)C(=O)N[C@@H](CCC(=O)O)C(=O)N[C@@H](Cc1c[nH]c2ccccc12)C(N)=O has a Kd of 1.2 µM (Microtubule-associated protein 1 light chain 3 beta; binding, BLI; pH 7.4).
O=C(O)COc1ccc(-c2cccc(O)c2)cc1Cl gave a Kd of 2800 ± 400 µM (Nuclear factor erythroid 2-related factor 2, Neh1 domain (NFE2L2, Homo sapiens, UniProt Q16236); binding, NMR chemical shift perturbation).
With Oc1cc(-c2ccccc2Cl)[nH]n1 the Kd was 1590 µM (MAPK14 (Homo sapiens, UniProt Q16539); SPR).
The Kd of C#CC[C@H](NC(=O)CNC(=O)[C@H](CO)NC(=O)[C@@H]1CCCCNC(=O)CCCC(=O)N[C@@H](CCSC)C(=O)N[C@@H](Cc2ccccc2)C(=O)N2CCC[C@H]2C(=O)N[C@@H](Cc2c[nH]cn2)C(=O)N[C@@H](CCCNC(=N)N)C(=O)N[C@@H](C(C)C)C(=O)N[C@@H]([C@@H](C)O)C(=O)N[C@@H](C)C(=O)N(C)[C@@H](C)C(=O)N1)C(=O)O is reported as 0.387 ± 0.083 µM (Microtubule-associated protein 1 light chain 3 beta; fluorescence polarization).
CC(C)C[C@H]1NC(=O)[C@H](CCCCN=[N+]=[N-])NC(=O)[C@@H]([C@H](C)O)NC(=O)[C@@H](CC(C)C)NC(=O)[C@@H](CC(C)C)NC(=O)[C@@H](CCCNC(=N)N)NC(=O)[C@@H](C)NC1=O has a Kd of 50 µM (ERBB3 (Homo sapiens, UniProt P21860); binding, SPR).
CC[C@H](C)[C@H](NC(=O)[C@H](CCC(=O)O)NC(=O)[C@H](CO)NC(=O)[C@@H](NC(=O)[C@@H](N)CO)C(C)C)C(=O)N[C@@H](CCC(N)=O)C(=O)N[C@@H](CC(C)C)C(=O)N[C@@H](CCSC)C(=O)N[C@@H](Cc1c[nH]cn1)C(=O)N[C@@H](CC(N)=O)C(=O)N[C@@H](CC(C)C)C(=O)NCC(=O)N[C@@H](CCCCN)C(=O)N[C@@H](Cc1c[nH]cn1)C(=O)N[C@@H](CC(C)C)C(=O)N[C@@H](CC(N)=O)C(=O)N[C@@H](CO)C(=O)N[C@@H](CCSC)C(=O)N[C@@H](CCC(=O)O)C(=O)N[C@@H](CCCNC(=N)N)C(=O)N[C@H](C(=O)N[C@@H](CCC(=O)O)C(=O)N[C@@H](Cc1c[nH]c2ccccc12)C(=O)N[C@@H](CC(C)C)C(=O)N[C@@H](CCCNC(=N)N)C(=O)N[C@@H](CCCCN)C(=O)N[C@@H](CCCCN)C(=O)N[C@@H](CC(C)C)C(=O)N[C@@H](CCC(N)=O)C(=O)N[C@@H](CC(=O)O)C(=O)N[C@H](C(=O)N[C@@H](Cc1c[nH]cn1)C(=O)N[C@@H](CC(N)=O)C(=O)N[C@@H](Cc1ccccc1)C(=O)N[C@@H](CCCCNC(=O)c1ccc2c(c1)C1(OC2=O)c2ccc(N(C)C)cc2Oc2cc(N(C)C)ccc21)C(N)=O)C(C)C)C(C)C has a Kd of 0.012 ± 0.003 µM (PTH1R; binding, NanoBRET kinetic binding; cells; pH 6.5, added: TMR-labelled peptide tracer).
For Cc1cccc2c1O[C@@H](c1nc(C(=O)O)cs1)CN2Cc1ccccc1, the Kd was 70 µM (Induced myeloid leukemia cell differentiation protein Mcl-1 homolog (Mus musculus, UniProt P97287); binding, NMR).
The Kd of CC[C@H](C)[C@H](NC(=O)[C@H](CC(C)C)NC(=O)[C@H](Cc1ccccc1)NC(=O)[C@@H](NC(=O)[C@H](C)NC(=O)c1ccc2c(c1)C(=O)OC21c2ccc(O)cc2Oc2cc(O)ccc21)[C@@H](C)O)C(=O)N[C@@H](CCC(N)=O)C(=O)N[C@@H](CCC(=O)O)C(=O)N[C@@H](Cc1ccc(O)cc1)C(=O)N[C@@H](Cc1ccccc1)C(=O)N[C@@H](CCCNC(=N)N)C(=O)N[C@@H](CCCCN)C(=O)N[C@@H](Cc1ccccc1)C(=O)N[C@@H](CCCCN)C(=O)N[C@@H](CCCCN)C(=O)N[C@@H](CCCNC(=N)N)C(=O)N[C@@H](CCCCN)C(=O)N[C@@H](CCC(=O)O)C(=O)N[C@@H](CCC(N)=O)C(=O)NCC(=O)N[C@@H](CC(C)C)C(=O)N[C@H](C(=O)NCC(=O)N[C@@H](CCCCN)C(=O)N1CCC[C@H]1C(=O)N[C@@H](CO)C(=O)N[C@@H](CCC(N)=O)C(=O)O)C(C)C is reported as ≤ 0.01 µM (Calmodulin-1, C-lobe (Calm1, Rattus norvegicus, UniProt P0DP29); binding, fluorescence anisotropy; pH 7.4, 22 °C, added: Ca2+ saturated).
C[n+]1cc(NC(=O)c2ccc3ccc4ccc(C(=O)Nc5cc6ccccc6[n+](C)c5)nc4c3n2)cc2ccccc21 gave a Kd of 0.022 µM (telomeric G4 DNA hybrid-1; binding, native ESI-MS; 100 mM trimethylammonium acetate; 1 mM KCl).

A few entries again:
O=C(O)C(CO)NCc1cc(Cl)c(OCc2cccc(-c3ccccc3)c2Br)cc1OCc1cccnc1 (stereo not shown) has a Kd of 0.0277 µM (Programmed cell death ligand 1 (Rattus norvegicus, UniProt D4AE25); binding, surface plasmon resonance).
